Measured values from different studies.
Parts stem from different laboratories: compare values within a part only.

Study 1 — method: RNA Bind-n-Seq; form: RNA; matrix: in vitro; tested at: 365 nM; baseline: no-protein control; reading: higher = stronger binding; endpoint: RBNS enrichment (R)
Target: RNA binding protein fox-1 homolog 2, RRM domain, GST-SBP tag (RBFOX2, Homo sapiens, UniProt O43251-10, residues 100-194)
Notes: natural RNA segment, single round, ends assumed
All sequences stand within: GGGAGUUCUACAGUCCGACGAUC … UGGAAUUCUCGGGUGCCAA
Construct (chain): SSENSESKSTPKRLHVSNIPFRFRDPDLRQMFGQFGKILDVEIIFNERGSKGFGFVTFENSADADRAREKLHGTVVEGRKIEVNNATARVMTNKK
GAAGUGGAACUGUGUUCCUGCCAGCCUCUGUAAUGACUGAAGAAAUACAGGGUUUUGAAAACAUGAAGGAAAUGAGAGUUUCCCCCCAUUCCUGAUUUAGCUAUUAUUUC: 0.523
CUGUGGCUUUCUUUUCCUAUUUUAUGAAAAAAAUGAUAAUCUUUUUGUAAAAUUGUCUGUGAAAUAUAAACAUUAAUAUAUAAAGAAAAACCUUGAAGUGCUGUAUAGUG: 0.744
GAGAGCUAUUGGAGUGAGAGCUGAGGUGUCCUUAACCACUUUUUCUCUCCUAGAUUCAUUUUCAUUAUUUAUGCUAGGAUUUUCUUAUGGUUGACAUUUGAUGACAGGAA: 0.359
CCCAGGCUUUGUUUCCUUUGCUCGUGCCUUAUACUCACAUAUAUCCAAUAUAACCCAUGGUGUUAAGCGCAUCCCAUCCAAGGGAAGAAAGAACCCACUGCUCACAGCAC: 0.25
UUCAAGGCAUCUCUUCCCCAUUCACCUAAAACCUCUGGCCUGAACAGAAAAGAGCCGGAGCUCUAAUGCAGGCUGUGUGGCCGCCCUUGUCUUAGGCUCAUUUGUUCCUU: 0.427
CAGGAGGGGUUUGCUCUGAAUUUGUAAACAAGUCUUCCUCGUCCUCAUGCCCCCACCCCUCUGCUGCCUCCUGCCACCAGCAUCCAUGGCCCCAUGGACACUUUUUUAAA: 0.61
ACAAAUAUGUCUGGUGGUGAAUGUGAAAGCUUUCCAUGAGAUGCCAAAGACCCUACAUCGAAUUUCCUUGAAGAAUGGUUCACGGGAUUUCUGUCCCUGAUGAAAGACUG: 0.375

Study 2 — method: competition protein-binding microarray; form: double-stranded DNA, one strand shown; matrix: in vitro; tested at: 2 µM; together with: Cbf1 competitor, 0.05 µM; reading: higher = stronger binding; endpoint: fluorescence intensity; all sequences stand within: … GTCTTGATTCGCTTGACGCTGCTG
Target: Phosphate system positive regulatory protein PHO4, full length, GST-tagged (PHO4, Saccharomyces cerevisiae, UniProt P07270, residues 1-312)
Notes: whole 60-bp probe, lowest competitor level
Construct (chain): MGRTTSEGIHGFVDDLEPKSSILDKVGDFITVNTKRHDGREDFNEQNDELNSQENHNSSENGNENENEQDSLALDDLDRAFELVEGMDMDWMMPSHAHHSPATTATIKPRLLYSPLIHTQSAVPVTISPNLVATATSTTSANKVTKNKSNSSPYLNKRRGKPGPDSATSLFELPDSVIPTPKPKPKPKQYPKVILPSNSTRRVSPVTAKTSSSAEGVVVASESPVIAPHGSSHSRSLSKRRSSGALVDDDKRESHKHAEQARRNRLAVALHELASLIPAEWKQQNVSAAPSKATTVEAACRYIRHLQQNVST
CATACCCAACCTTGTCACACAACTTAAGATATTTGT: 4380 a.u.
CATATGGTATGATTGCACGTGGGACTCTAGGGGAAG: 19000 a.u.
CATACCCAACCTTGAAGTGTGGGTGAAGATATTTGT: 5220 a.u.
AGGGTACCTCTTCTAAACGTGCCGAAGAACACTCGA: 11300 a.u.
CTGCGCATACGAATACACATGAGTGCCATAAAACAA: 7050 a.u.
TGCGATTCAGGTCTCAACGTGCAAAGTGCAGGAGCA: 10300 a.u.
AAGATATCTTTTTGTCATGTGATGGTACATCGTTTG: 6560 a.u.

Study 3 — method: protein binding microarray; form: double-stranded DNA, one strand shown; matrix: in vitro; tested at: not given; baseline: not given; reading: higher = stronger binding; endpoint: E-score
Target: Histone acetyltransferase KAT6A, winged helix 2, GST fusion (KAT6A, Homo sapiens, UniProt Q92794, residues 85-181)
Notes: 8-mer, flanks averaged, mean of 2 arrays, mostly near background
Residues (chain): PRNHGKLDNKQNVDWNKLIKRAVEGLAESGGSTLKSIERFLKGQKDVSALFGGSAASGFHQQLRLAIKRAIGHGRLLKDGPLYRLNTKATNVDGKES
GTTTCTCA: 0.0211
CCTTAGCG: 0.0149
CATTCTGA: 0.0609
AATTCGGA: 0.0103
ATGTGACC: -0.0265
AGGATCGA: -0.112
CGTCTCGA: -0.00789

Further values, each from its own experiment
PhoQ, residues 284 288 289 292 302 303 SCEHLI — fold induction (PhoP, residues 12 14 15 18 19 GQAIL (Escherichia coli, UniProt P23836); Sort-seq, measured: YFP reporter; E. coli; PhoQ-PhoP variant library, together with: 10 µM Mg2+; baseline: high Mg2+ state, higher = stronger signaling): 23.8
